Published values pooled from the literature.
Parts stem from different laboratories: compare values within a part only. Changes are numbered by the printed parent chain.

Study 1
Target: CCNA2, cyclin fold, Cln2 fusion (human)
Technique: yeast growth competition, sequencing
Matrix: yeast
Notes: strong parent motif
Reference: not given
Reading: higher = stronger binding
Quantity: normalised enrichment score
Parent: CDC6 docking peptide (human); TLKGRRLVFDNQL; partner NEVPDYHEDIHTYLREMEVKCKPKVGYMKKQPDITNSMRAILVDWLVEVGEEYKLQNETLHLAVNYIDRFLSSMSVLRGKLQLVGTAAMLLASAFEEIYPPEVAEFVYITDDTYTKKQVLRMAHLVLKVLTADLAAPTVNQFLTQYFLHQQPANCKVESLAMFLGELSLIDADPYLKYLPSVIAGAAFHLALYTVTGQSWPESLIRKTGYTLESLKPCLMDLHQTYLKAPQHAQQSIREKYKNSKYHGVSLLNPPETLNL
Variant = TLKGERLVFDNQL [R5E]; result = -0.343
Variant = TLKGRRLVFDGQL [N11G]; result = 3.46
Variant = TLKGRRAVFDNQL [L7A]; result = 0.378
Variant = TLCGRRLVFDNQL [K3C]; result = 3.66
Variant = TRKGRRLVFDNQL [L2R]; result = 5.02
Variant = TLGGRRLVFDNQL [K3G]; result = 0.84
Variant = TLKGVRLVFDNQL [R5V]; result = 0.837
Variant = TLKGRRLVFANQL [D10A]; result = 1.11
Variant = TLKSRRLVFDNQL [G4S]; result = 0.525
Variant = TLKGRRLVEDNQL [F9E]; result = 0.54
Variant = HLKGRRLVFDNQL [T1H]; result = 4.2
Variant = TLKGRRLVPDNQL [F9P]; result = 0.867
Variant = TLKGRRLVFDNFL [Q12F]; result = 3.02
Variant = TLKGRRLNFDNQL [V8N]; result = 4.72
Variant = TLWGRRLVFDNQL [K3W]; result = 1.03
Variant = TLKGNRLVFDNQL [R5N]; result = 0.55
Variant = TLKGRRLVFDNKL [Q12K]; result = 2.28
Variant = TLAGRRLVFDNQL [K3A]; result = 2.27
Variant = TLKGRCLVFDNQL [R6C]; result = 1.44
Variant = ILKGRRLVFDNQL [T1I]; result = 2.71
Variant = TLKGRRLVFDNQV [L13V]; result = 3.62
Variant = TLKGDRLVFDNQL [R5D]; result = -1.18
Variant = TLKGFRLVFDNQL [R5F]; result = 0.455
Variant = TLKKRRLVFDNQL [G4K]; result = 2.21
Variant = TLKGYRLVFDNQL [R5Y]; result = 0.244

Study 2
Target: Ras GTPase-activating protein-binding protein 1, full length (G3BP1, Homo sapiens, UniProt Q13283)
UniProt Q13283, sequence (whole entry, looked up): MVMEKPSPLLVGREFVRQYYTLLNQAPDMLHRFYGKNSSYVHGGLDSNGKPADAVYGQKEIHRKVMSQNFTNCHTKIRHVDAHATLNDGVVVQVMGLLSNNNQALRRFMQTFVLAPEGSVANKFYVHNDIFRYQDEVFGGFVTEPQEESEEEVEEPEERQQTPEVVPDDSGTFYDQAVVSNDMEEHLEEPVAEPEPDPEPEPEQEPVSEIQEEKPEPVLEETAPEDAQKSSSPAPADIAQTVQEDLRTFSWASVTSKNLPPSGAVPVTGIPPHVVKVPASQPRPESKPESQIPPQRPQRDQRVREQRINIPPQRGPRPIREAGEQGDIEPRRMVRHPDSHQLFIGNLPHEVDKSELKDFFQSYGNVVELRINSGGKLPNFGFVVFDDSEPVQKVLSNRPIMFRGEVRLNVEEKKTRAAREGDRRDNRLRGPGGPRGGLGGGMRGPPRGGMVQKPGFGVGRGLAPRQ
Technique: RNA Bind-n-Seq
Form: RNA
Matrix: in vitro
Concentration: 200 nM
Notes: whole 134-nt RNA, ends assumed
Together with: 150 mM KCl
Reference: input library
Reading: higher = stronger binding
Quantity: log2 enrichment
Shared flanks, not repeated: GGGAGUUCUACAGUCCGACGAUC … UGGAAUUCUCGGGUGUCAAGG
Oligonucleotide = UCAAGUCCUGUGCUACACAUCGUAUGUACCGAAUCGGUUGGGGUUGGGGUUGGGGAAAGUAUUAUGUUACGCCGUUCGGAUCUGCACUUC; result = 0.498
Oligonucleotide = ACCAUGCAGGCGGGCAUCUUUGGGAAGUGGGGCAAGGGGGGGAUAGGGAGGGGGGUAACACUUUGGGAACAGGUGGUCCCAGGUCGUUUC; result = 1.62
Oligonucleotide = AAGUCCUGUGCUACACAUCGUAUGUACCGAAUCAAAUUUAAAUUUUUAAACCCAAAAAAGUAUUAUGUUACGCCGUUCGGAUCUGCACUU; result = -0.401
Oligonucleotide = GUCCUGUGCUACACAUCGUAUGUACCGAAUCGGGAAAAAGGGAAAAAAAGGGAAAGGGAAAGUAUUAUGUUACGCCGUUCGGAUCUGCAC; result = -0.493
Oligonucleotide = UGGCCCUGGUGGCAUGCGGGGAGGAAGAGGUGGCCUCAUGGAUCGAGGUGGUCCCGGUGGAAUGUUCAGAGGUGGCCGUGGUGGAGACAG; result = 0.221
Oligonucleotide = AGUCCUGUGCUACACAUCGUAUGUACCGAAUCAAAUUUUUUUAAAUUUAAACCCAAAAAAGUAUUAUGUUACGCCGUUCGGAUCUGCACU; result = -0.584
Oligonucleotide = AAGUCCUGUGCUACACAUCGUAUGUACCGAAUCGGGAAAAGGAAAAGGAAAAGGGGAAAGUAUUAUGUUACGCCGUUCGGAUCUGCACUU; result = -0.746
Oligonucleotide = CCUGUGCUACACAUCGUAUGUACCGAAUCGGGGAAAGGGGUUUUUUUGGGGAAAAAGGGGAAAGUAUUAUGUUACGCCGUUCGGAUCUGC; result = 0.211
Oligonucleotide = CAAGUCCUGUGCUACACAUCGUAUGUACCGAAUCGGUUUGGAAAAAAAGGUUUGGAAAGUAUUAUGUUACGCCGUUCGGAUCUGCACUUC; result = -1.24
Oligonucleotide = ACCAUGCAGGUGGGCAUCUUUGGGAAGUGGGAAAAGGGGGGGAUAGGGAGGGGGGUAACACUUUGGGAACAGGUGGUCCCAGGUCGUUUC; result = 1.26
Oligonucleotide = GUCCUGUGCUACACAUCGUAUGUACCGAAUCGGGGUUUUUGGGGUUUUUGGUUUUUGGGAAAGUAUUAUGUUACGCCGUUCGGAUCUGCA; result = -0.509
Oligonucleotide = AAGUCCUGUGCUACACAUCGUAUGUACCGAAUCGGGGAAAAGGAAAAGGAAAAGGGGAAAGUAUUAUGUUACGCCGUUCGGAUCUGCACU; result = -0.527
Oligonucleotide = UCAAGUCCUGUGCUACACAUCGUAUGUACCGAAUCGGGUUUGGUUUGGGGUUUGGAAAGUAUUAUGUUACGCCGUUCGGAUCUGCACUUC; result = -0.625
Oligonucleotide = UCCUGUGCUACACAUCGUAUGUACCGAAUCGGGUUUUUUUGGGAAAAAGGGUUUUUGGGAAAGUAUUAUGUUACGCCGUUCGGAUCUGCA; result = -0.379

Study 3
Target: RNA binding protein fox-1 homolog 2, RRM domain, GST-SBP tag (RBFOX2, Homo sapiens, UniProt O43251-10, residues 100-194)
Technique: RNA Bind-n-Seq
Form: RNA
Matrix: in vitro
Concentration: 365 nM
Notes: natural RNA segment, single round, ends assumed
Reference: no-protein control
Reading: higher = stronger binding
Quantity: RBNS enrichment (R)
Shared flanks, not repeated: GGGAGUUCUACAGUCCGACGAUC … UGGAAUUCUCGGGUGCCAA
Target sequence (chain): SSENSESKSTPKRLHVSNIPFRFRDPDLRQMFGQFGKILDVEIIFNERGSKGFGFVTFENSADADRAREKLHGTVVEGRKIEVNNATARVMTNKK
Oligonucleotide = UCUCACCGGGUGAUUCAUCAAAUUACCUACCAAGAGCUCCAAGAGGGGCUCCCUGCAAUGGACGAGGAGGCUCUAAAGCCAGCCUAAGGCACUGAUUGUGGAAGAUCUGG; result = 0.389
Oligonucleotide = UUUUUUUCUCUAGGGAGAGGUACAGUGUUUAUAUUUUGGAGCCUUCCUGAAGGUGUAAAAUUGUAAAUAUUUUUAUCUAUGAGUAAAUGUUAAGUAGUUGUUUUAAAAUA; result = 0.438
Oligonucleotide = UGUACAGUAAUGAAGUUCACUGUGUUUAUAAAUUGAAAAGGUACCAGGUCUUACAGCAUUUUAUAUAUCACAUCUUUACAGAAUAACAUGAUGGCAAUAUACAAGUGGUA; result = 0.611
Oligonucleotide = CUCUGAGCAGUGGGGUGAGGGGCCUAAGUGGCCCCGGUCGGAGGAGCCUGGAGCAGAAAUGGCAGCCCCAUCCUUCCUCCAGCCACUACCCCAAGCUACAGUGGGGGCCC; result = 0.246
Oligonucleotide = AUCACACCACUGCACUCCAACCUGGACAACAGAGCGAGACUCCAUCUCAAAAAAAAAAAAAAAUUGUGUUGCCUCAUACGAAAUGUAUUUGGUUUUGUUGGAGAGUGUCA; result = 0.404
Oligonucleotide = AUUGGGAGAAUUACUGCCUUUACUUUGGGACUACUUUUAUGCUGAUAACUUGGGAUUUCUUGAUAGUCCUUCACCCCUGAAACCCCGUAUUUACUUAACAAGAUUUAGCU; result = 0.344
Oligonucleotide = GGGAGCGCUUCCUGCAGCCGCUGAUGGCCCUGCUGUACCCUGACUGUGGCGGGGGCCGGCUCGACAGCCACCGGGCCUUUGUGGUCAAAUACGCACCGGGCCAGGACCUG; result = 0.309
Oligonucleotide = CCCCGUCCCAGAGGCCGCUGCCCCUGAGUUCUGACACUGUGUGUUUGGGAAGGUGGGUGAGGCUGGGCAGGGCCUGGCGGAGGUGGAGUGGCCACUGGCACUUGCCUGCU; result = 0.496
Oligonucleotide = CAUAUGUGAAACCAGUCUCUUGUGGAGAUUGGAAAUCCUCCCUGAUAUUUGGGCAGAGCCUAAACGUGCAUGCUUGUCACUCAAACACCAGAAGUUUGAAUCAGAGGUCU; result = 4.62
Oligonucleotide = GAGCUGAGCAUUGAUGGGGAUGGGGGUGGUUUGGGAAUAGAAACUUGUUCUUGCAUGAGAUGGCUUUGGUUGUCCCAGUACUCCAGUCUCUCCCUUCCCUUACCUGGCCC; result = 1.62
Oligonucleotide = CGGUCCUCUGGGCAGUGUGGGGUGCAGAAUGGGGUGCCUAGGCCUGAGCGUUGCCUGGAGCCUAGGCCGGGGGCCGCCCUCGGGCAGGCGUGGGUGAGAGCCAAGACCGC; result = 1.03
Oligonucleotide = AACACUACAGCCUGCCUUGGAGCUGGCCUAUCUCUGGGGGUGUUAGAGAGUUUGUGGGGAUCUCUUCUGAGUACCCCAGGACUUGGGAAAUAAUGCAAGAGUAUCCCUUU; result = 1.6

Study 4
Target: Sal-like protein 4, full length isoform A (SALL4, Homo sapiens, UniProt Q9UJQ4, residues 1-1053)
UniProt Q9UJQ4, sequence (whole entry, looked up): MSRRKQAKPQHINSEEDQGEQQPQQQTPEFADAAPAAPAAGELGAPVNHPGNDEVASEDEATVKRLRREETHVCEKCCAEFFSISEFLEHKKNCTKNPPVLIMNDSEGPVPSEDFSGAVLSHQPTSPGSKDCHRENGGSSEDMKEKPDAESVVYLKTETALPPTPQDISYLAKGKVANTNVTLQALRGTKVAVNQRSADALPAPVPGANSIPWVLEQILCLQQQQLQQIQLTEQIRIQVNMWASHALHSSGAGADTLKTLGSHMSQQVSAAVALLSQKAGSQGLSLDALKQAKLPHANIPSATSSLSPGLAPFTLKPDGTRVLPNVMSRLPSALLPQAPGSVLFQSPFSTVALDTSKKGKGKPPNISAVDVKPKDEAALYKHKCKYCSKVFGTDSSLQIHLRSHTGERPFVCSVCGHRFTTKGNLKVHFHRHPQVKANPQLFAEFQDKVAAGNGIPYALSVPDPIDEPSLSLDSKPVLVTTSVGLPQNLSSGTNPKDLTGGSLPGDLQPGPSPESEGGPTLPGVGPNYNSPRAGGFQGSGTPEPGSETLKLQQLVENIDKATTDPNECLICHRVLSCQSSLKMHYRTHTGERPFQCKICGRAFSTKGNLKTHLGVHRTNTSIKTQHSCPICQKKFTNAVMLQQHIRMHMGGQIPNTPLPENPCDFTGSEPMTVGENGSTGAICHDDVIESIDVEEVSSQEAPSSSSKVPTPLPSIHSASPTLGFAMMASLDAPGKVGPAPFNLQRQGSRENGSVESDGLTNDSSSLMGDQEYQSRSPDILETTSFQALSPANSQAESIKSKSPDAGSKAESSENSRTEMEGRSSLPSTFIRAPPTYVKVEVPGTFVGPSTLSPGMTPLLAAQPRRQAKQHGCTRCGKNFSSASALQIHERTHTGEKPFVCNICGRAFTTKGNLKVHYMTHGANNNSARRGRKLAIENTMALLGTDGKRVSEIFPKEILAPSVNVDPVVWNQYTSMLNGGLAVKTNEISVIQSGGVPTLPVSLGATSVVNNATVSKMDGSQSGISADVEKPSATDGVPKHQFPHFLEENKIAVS
Technique: universal PBM
Form: double-stranded DNA, one strand shown
Matrix: in vitro
Concentration: 600 nM
Notes: 8-mer, flanks averaged, mean of replicates
Reading: higher = stronger binding
Quantity: E-score
Oligonucleotide = ACCTTTAG; result = 0.0822
Oligonucleotide = CTGGGTGC; result = -0.347
Oligonucleotide = CGATACTA; result = 0.163
Oligonucleotide = CTAAAACA; result = 0.0895
Oligonucleotide = AGTAAAGG; result = 0.0321
Oligonucleotide = CCTCGACC; result = -0.154
Oligonucleotide = ACAATGCT; result = 0.0362
Oligonucleotide = ACCCGGCC; result = -0.386
Oligonucleotide = GACGGTCC; result = -0.361
Oligonucleotide = AGCATGTC; result = 0.00931
Oligonucleotide = CACCATGG; result = -0.217
Oligonucleotide = GACACTGC; result = -0.225
Oligonucleotide = ACCAACGA; result = -0.0589
Oligonucleotide = ATCCAATC; result = 0.126
Oligonucleotide = CCAGATCA; result = 0.116
Oligonucleotide = GCCTAAAC; result = -0.092
Oligonucleotide = AGCTTGCC; result = -0.213
Oligonucleotide = GTGCCAGA; result = -0.18
Oligonucleotide = AGCCCACG; result = -0.309
Oligonucleotide = GACTTTCC; result = -0.081
Oligonucleotide = CCCAAACG; result = -0.104
Oligonucleotide = GAAGCGAC; result = -0.178
Oligonucleotide = CAAACCAC; result = -0.0384
Oligonucleotide = GCCCGCTA; result = -0.245
Oligonucleotide = CTCTTCCA; result = 0.0394

Study 5
Target: Histone acetyltransferase KAT6A, winged helix 1, GST fusion (KAT6A, Homo sapiens, UniProt Q92794, residues 1-85)
Technique: protein binding microarray
Form: double-stranded DNA, one strand shown
Matrix: in vitro
Concentration: not given
Notes: 8-mer, flanks averaged, mean of 2 arrays, mostly near background
Reference: not given
Reading: higher = stronger binding
Quantity: E-score
Target sequence (chain): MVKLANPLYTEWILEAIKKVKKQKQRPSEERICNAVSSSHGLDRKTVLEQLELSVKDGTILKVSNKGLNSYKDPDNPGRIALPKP
Oligonucleotide = AAATTTCC; result = -0.143
Oligonucleotide = ATCCTAGA; result = 0.0318
Oligonucleotide = ACCGCGAA; result = 0.321
Oligonucleotide = CCCTACCA; result = -0.112
Oligonucleotide = AGGGCCTG; result = -0.265
Oligonucleotide = AAAACTTC; result = -0.0776
Oligonucleotide = GTTTACTA; result = -0.0151
Oligonucleotide = GGTGAATA; result = -0.096
Oligonucleotide = GACCGTGA; result = 0.0743
Oligonucleotide = ACTAGGCA; result = -0.0626
Oligonucleotide = GTCTTCGA; result = -0.044
Oligonucleotide = CTGTCAAA; result = -0.0798
Oligonucleotide = ACGACCTG; result = -0.0149
Oligonucleotide = AACGACCG; result = -0.0605
Oligonucleotide = ACGTCAGA; result = -0.252
Oligonucleotide = GCTGCCCC; result = 0.18
Oligonucleotide = CGTCTATC; result = -0.00121
Oligonucleotide = CGTTAAAA; result = 0.0152
Oligonucleotide = GATTATCC; result = 0.0124
Oligonucleotide = AGGCGCAT; result = 0.26
Oligonucleotide = ACTAGCTC; result = -0.089
Oligonucleotide = CACCCCCC; result = 0.0349
Oligonucleotide = TCCTTCGA; result = -0.0649

Some of these lines once more (study 1):
Variant = TLWGRRLVFDNQL [K3W]; result = 1.03
Variant = TLCGRRLVFDNQL [K3C]; result = 3.66
Variant = TLKGRRLVFDNKL [Q12K]; result = 2.28
Variant = TLKGNRLVFDNQL [R5N]; result = 0.55
Variant = TLGGRRLVFDNQL [K3G]; result = 0.84
Variant = TLKGRRLVPDNQL [F9P]; result = 0.867
Variant = TLKGFRLVFDNQL [R5F]; result = 0.455
Variant = TLKGRRLVFDNQV [L13V]; result = 3.62
Variant = TLKGRRAVFDNQL [L7A]; result = 0.378
